Experimental data collected from several papers.
Parts stem from different laboratories: compare values within a part only. Changes are numbered by the printed parent chain.

Study 1 — method: RNA Bind-n-Seq; form: RNA; sample: in vitro; concentration: 365 nM; baseline: no-protein control; reading: higher = stronger binding
Target: RNA binding protein fox-1 homolog 2, RRM domain, GST-SBP tag (RBFOX2, Homo sapiens, UniProt O43251-10, residues 100-194)
Notes: natural RNA segment, single round, ends assumed
Residues (chain): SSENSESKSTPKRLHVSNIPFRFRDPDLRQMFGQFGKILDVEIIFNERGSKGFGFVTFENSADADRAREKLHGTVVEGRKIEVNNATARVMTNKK
Oligonucleotide	RBNS enrichment (R)
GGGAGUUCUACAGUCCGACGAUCAUCCAGCACUGGUGAACUGAGCUGGGCAGGAAGGGAGAACUUGAAACAGAUUCAGGCCAGCCCAGCCAGGCCAACAGCACCUCCCCGCUGGGAAGAGAAGAGGGCCCAGCUGGAAUUCUCGGGUGCCAA	0.33
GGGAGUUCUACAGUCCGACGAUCAAGGGAUUAAUUUUCAGACCCCUUUAAAAGUGAGUGCCAUAAAGAGUCAAUAUAUAGUGUUGAAGUGGUAUUUCAGGCUAGGAAUUAUUCCCUUCUCUUGGAAUGUGAAGUGGAAUUCUCGGGUGCCAA	0.627
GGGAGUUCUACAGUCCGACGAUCAGCUGUGAGUGUGGCCUGCUGCCUGCUUGUGAUGAGUGAUACCGUCUUACUGUUUCUGUUUCACAUAGGGACAUUUAAAUCAAUGUCAAUGUGCGUCCAUGCUUGAGUGAUGGAAUUCUCGGGUGCCAA	0.793
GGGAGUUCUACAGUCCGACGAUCGCCGUCUUCUCUUAGAAGGGGAUGCAGUACUGUACAAAGAUUGAGCUGGAUGUCGCAUUGCAUGUUUGCUGAGUCCUCCUCAUUGCUGAUGUUAGGAUCCUUCAACAGUUUGGAAUUCUCGGGUGCCAA	29.8
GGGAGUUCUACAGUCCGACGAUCAGGAGUUGAAUUCUUUGGCAAGGUUGGAUUCUGAGGUCCUUAUUAUGUUAAUGAUGGUGCAAUACUCUCACCUGCAGUAGAACUGAGUUCUGCUGCAGCUUGUGUAAAAGUGGAAUUCUCGGGUGCCAA	0.544
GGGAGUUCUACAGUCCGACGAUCUGUCCACAGCUUGGGCCAGGCUUCCCCUGUCCUCCCACCGGUCGGCUGCUUGGCAAGGCUGUUCAGGACGUGCACUUCCCCAAGUCGGCACUGAGUGGCCCAGCACCGCCUGGAAUUCUCGGGUGCCAA	0.44
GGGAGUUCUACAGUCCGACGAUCUCCCAUAAACUAUGUAUUUUGGCAAGACACUUCACUACUCCAGGUCUCACUUUCCCCAUCUGUAAAACAGGGUUUGGACUAGGUGUUCCCUGGUAUUCUGUGAUCUGCCUUGGAAUUCUCGGGUGCCAA	0.508
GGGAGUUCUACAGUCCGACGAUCUAAUCAGAAGCAUUUGAUAAUAAUCUGCCUUGCAGCCACGCCUUCAAACUUCAUUGUUGCUUUCUCUUCUGGCCUUGUAAUGUUUGAGUCAAGCCCUGCUUCUCAGCUAGUGGAAUUCUCGGGUGCCAA	0.436
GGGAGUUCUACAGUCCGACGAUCAUGCAAUUCUGUUAAAAAAUGUAUUCUUCUGAAUAAAGAGAAUAUUCACUAUUUAACUGCAAACCAACCAUGGUAGUGGUCUUUUUUUGGUUGUUUGUUCUGUUUUGCACUGGAAUUCUCGGGUGCCAA	0.701
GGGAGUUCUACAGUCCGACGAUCCCCGCCUGCUCCCUUCCUGACCUCCCCUGACCCCGAAGAUCACUACCUCUGUCAUUCAGGCAUUGGGGUACAUCCUGAUAAGUCGUGUCAGAACUGCCAAUUUCAGGACUUGGAAUUCUCGGGUGCCAA	0.493
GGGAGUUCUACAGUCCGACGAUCGCUUGGAAAAUAGCUAUAUUCAACAAAAAUCUUCAAAGACUGGUUUCUUUUUUAAAAGAAAAAACUUGAAAGAACACUUCUAAGCCUAAGUGUGUGAUACAGUUUGUUACUGGAAUUCUCGGGUGCCAA	0.559
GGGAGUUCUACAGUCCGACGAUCCAGUGGUCGCUCCGGUGGGUAAGGAGAGUCUUAUAGCAUGGAUUGUUAGUAAUGUACACCUCUGAUGGGACUCCAAAGGGUGGUCCUUCACUUAGGUGUAGAGCCCCACAUGGAAUUCUCGGGUGCCAA	0.488

Study 2 — method: RNA Bind-n-Seq; form: RNA; sample: in vitro; concentration: not given; baseline: input RNA pool; reading: higher = stronger binding
Target: RING finger protein unkempt homolog, zinc fingers 1-6, GST-SBP tag (UNK, Homo sapiens, UniProt Q9C0B0, residues 30-357)
Chain of UniProt Q9C0B0 (30-357, looked up): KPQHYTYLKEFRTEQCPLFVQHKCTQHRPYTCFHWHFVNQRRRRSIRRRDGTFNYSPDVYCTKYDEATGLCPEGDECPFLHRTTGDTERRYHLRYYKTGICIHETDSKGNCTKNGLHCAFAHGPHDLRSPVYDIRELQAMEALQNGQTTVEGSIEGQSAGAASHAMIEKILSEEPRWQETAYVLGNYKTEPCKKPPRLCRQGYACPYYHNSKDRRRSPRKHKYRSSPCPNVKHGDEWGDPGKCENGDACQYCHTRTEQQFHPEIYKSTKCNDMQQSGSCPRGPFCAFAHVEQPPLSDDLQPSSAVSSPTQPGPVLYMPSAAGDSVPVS
Notes: RNA with constant flanks, human and mouse sites, ends assumed
Oligonucleotide	bound/input enrichment [ratio]
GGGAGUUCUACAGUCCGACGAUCACAGCUAUCUGGAACUUACUCGUUACAACAGGGCGAGAAGUUAAAUAUGACUUGUUGGUUAGCAAUGCAAUUCAGUUUCUGGCUUCAGUUUGUGAAAGGCCACAUUAUAAGAAUCUGUUUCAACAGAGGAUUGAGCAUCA	0.5
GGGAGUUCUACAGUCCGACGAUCCUGUCCGAGAGAACGGGAUCUGCACGGCCGCUGUGUCCCUGCUUUGGAAGUGGUUCAGUCAUGGUUGAGAUUAAGAAGAUCUGUUGCAUUGGUGCGGGCUAUGUCGGCGGACCCACGUGCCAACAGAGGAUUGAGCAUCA	0.335
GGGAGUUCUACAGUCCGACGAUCUACCUGGACAAAGCACCUCCACCGGGCCUGCCGGUUGAGACCAUUAAGGAUCUAAUGCGUCAGUUUCUAAGCGGCCUGGAUUUUCUUCAUGCAAACUGCAUUGUUCACCGGGACCUGAAGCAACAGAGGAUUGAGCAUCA	0.204
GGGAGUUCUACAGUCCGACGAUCCCUGCUGUAUUGUCUGCUCUUGACCAAAGCCAGUCACAGCCUUCAAAAGCAGCAGAAACCCCUGCAGUGGCUUCAUGUUGGAGUGGGCCACAAGUUUCUCCAGAGCAUAAAGAACUAUCUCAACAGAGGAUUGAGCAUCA	0.168
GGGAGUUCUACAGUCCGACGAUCAUUUAGAAUGUUAAUAAAUUGCUCUGAGUUUCCUCAAGUCCAUUUUGUAAGAUCAGACCAUAGGUGGGUGUUGUUUCUUUUAAGUGUGUGUACUGUGUCCAAUGUUACAUUUUUAGAAGUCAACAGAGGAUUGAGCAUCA	29.9
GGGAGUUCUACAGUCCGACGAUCAAGAGGAUACAUGAAGUGGCUAUGGGAGAAACAAAAGCCCAAACCAGACCUAGAGGAUCAAGUCAUAAUGGGAGCAUUUUUAGACAAGCCAAAGAUGGAGAAGCAUAAUGCCCAGGGGCACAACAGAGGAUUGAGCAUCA	0.576
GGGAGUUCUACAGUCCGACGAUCCUGCCUCACCAGUUGGUACAUUUUGUUUUUGAAAGAGGUGGGAUCCAAAAGAGCUGUUUCUAGCCACACUCCAAGCACCUGAGACUUUGGGCACAAGGACACUUUUUUUUUUUUUUUUUUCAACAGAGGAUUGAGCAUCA	2.93
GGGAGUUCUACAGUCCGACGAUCCUUCGGGCUGCUAAUAUUCUUGUAGGAGAAAAUCUUGUGUGCAAAAUAGCAGACUUUGGUUUAGCAAGGUUAAUUGAAGACAAUGAAUACACAGCAAGACAAGGUGCAAAAUUUCCAAUCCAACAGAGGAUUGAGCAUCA	20.7
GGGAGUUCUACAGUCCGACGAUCUUCCAUGUAGACUUACCUUUCCUCAUAGAGCUAUCCUGGUUAAUAACAGGCCAAGAUUCUCCCAUUAUCCCCUGUUGUCUCCUGUAGCUUUGAUAAUGCCUGGGAGAUUCCUUGGUGUAACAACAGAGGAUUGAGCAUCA	0.789
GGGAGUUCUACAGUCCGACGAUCGGGGGUAAUUAUGCUUUGUGAAGUAGGGAUUAAAUGAAGGGAAAACUACAGAGGCGGCUGCGAGAAGGAUGAGUGUGCGCACACCUGUCAGUAAACAGUUGGUCAACCGUAGGGACAGGACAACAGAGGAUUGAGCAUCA	0.68
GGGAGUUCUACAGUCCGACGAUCAGUGGAUUUUGUAGCUAUUUAGAAUCCCAGGACUCUGGAUAUCUAUAUUUUUGCUUCAGAUGGCUUUUAAUCAGAUUUAAAAGGGAAUUUAGUUUUCUAGAUAUACUUCGAUUAUGGGAGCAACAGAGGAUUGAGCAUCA	0.811

Study 3 — method: aptamer microarray, sandwich; form: DNA with 2'F-ANA; sample: in vitro; concentration: 200 nM; added: Cy3 exosite-II aptamer, 400 nM; reading: higher = stronger binding; oligonucleotide: GGTTGGTGTGGTTGG
Target: Prothrombin, mature alpha-thrombin (F2, Homo sapiens, UniProt P00734)
Notes: whole 15-mer aptamer, many near background
Modification	mean fluorescence intensity [a.u.]
2'F-ANA at 1 2 4 7 8 9 13 14 15	47.3
2'F-ANA at 1 4 10 12 13 15	56.8
2'F-ANA at 1 2 4 9 11 13 14	142
2'F-ANA at 1 3 7 9 12	563
2'F-ANA at 1 2 3 4 5 10 11 12 14	44.6
2'F-ANA at 1 2 3 4 7 10 11 15	56.2
2'F-ANA at 2 6 8 10 11	116
2'F-ANA at 1 6 7 12 15	336
2'F-ANA at 2 3 4 5 6 8 9 13 14 15	50.3
2'F-ANA at 1 2 5 6 11 15	53.5
2'F-ANA at 7 8 9 10 11 13	169
2'F-ANA at 3 5 6 10 12 14 15	48.6
2'F-ANA at 1 3 4 6 7 8 10 11	66
2'F-ANA at 3 6 7 9 12 13 14	520
2'F-ANA at 1 2 4 5 6 7 8 14	48.5
2'F-ANA at 3 6 9 10 13 14 15	463
2'F-ANA at 1 3 4 5 6 7 8 9 10 12 13 14 15	47.3
2'F-ANA at 2 3 4 5 7 10 12	79.9
2'F-ANA at 1 2 5 6 8 11 12 14 15	63.7
2'F-ANA at 1 2 3 7 8 9 12 13 14 15	299
2'F-ANA at 1 2 3 7 8 12 13 15	495

Study 4 — target: CCNE1, cyclin fold, Cln2 fusion (human); method: yeast growth competition, sequencing; sample: yeast; notes: weak parent motif; baseline: not given; reading: higher = stronger binding
Starting sequence: RP1L1 docking peptide (human); TLGLGPLSFTLED
Substitution	normalised enrichment score
L4A	0.376
T10A	0.402
P6A	0.183
L11A	0.0767
S8A	0.367
G5A	0.619
G3A	0.162

Study 5 — method: universal PBM; form: double-stranded DNA, one strand shown; sample: in vitro; concentration: not given; reading: higher = stronger binding
Target: Sal-like protein 4, full length isoform B (SALL4, Homo sapiens, UniProt Q9UJQ4-2, residues 1-616)
Notes: 8-mer, flanks averaged, mean of replicates
Residues (chain): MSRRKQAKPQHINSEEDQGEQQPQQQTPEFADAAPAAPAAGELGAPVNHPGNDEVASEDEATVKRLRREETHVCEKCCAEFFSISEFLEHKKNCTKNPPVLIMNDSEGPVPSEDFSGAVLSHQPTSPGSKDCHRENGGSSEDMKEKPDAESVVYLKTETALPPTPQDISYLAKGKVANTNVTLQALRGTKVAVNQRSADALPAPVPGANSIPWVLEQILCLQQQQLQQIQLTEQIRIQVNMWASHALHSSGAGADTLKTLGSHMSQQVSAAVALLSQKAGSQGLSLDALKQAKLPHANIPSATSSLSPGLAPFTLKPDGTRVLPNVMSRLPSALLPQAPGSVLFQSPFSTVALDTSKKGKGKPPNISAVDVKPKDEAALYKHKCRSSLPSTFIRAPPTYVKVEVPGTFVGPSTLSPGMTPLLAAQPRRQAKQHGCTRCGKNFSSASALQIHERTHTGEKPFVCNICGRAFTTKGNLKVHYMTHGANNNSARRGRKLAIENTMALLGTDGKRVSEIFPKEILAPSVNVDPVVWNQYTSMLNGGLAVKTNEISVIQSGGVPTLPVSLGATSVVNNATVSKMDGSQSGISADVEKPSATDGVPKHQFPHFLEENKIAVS
Oligonucleotide	E-score
TGCGAGCA	-0.0653
TAACTCCA	0.0927
ACACAACT	0.109
AACGGCGA	0.0386
ATAGCGGA	0.0629
ACAGTCCC	-0.207
CTTCTGCA	0.0232
TCATTGGA	0.00941
CAGAGACG	-0.11
AAAGCTCG	-0.179
TACTAGCA	0.0806
AGCTTCTA	-0.0102
CGGCGCCA	-0.319
CTCCATAA	0.247
ACGATGGG	-0.102
GCCATTAA	0.1
TACGTGCA	-0.0366
AGGCCCTC	-0.302
AGGGCGCA	-0.325
ATCACAGC	0.0942

Some of these lines once more (study 3):
Modification	mean fluorescence intensity [a.u.]
2'F-ANA at 1 2 3 4 5 10 11 12 14	44.6
2'F-ANA at 3 6 7 9 12 13 14	520
2'F-ANA at 2 6 8 10 11	116
2'F-ANA at 1 2 4 9 11 13 14	142
2'F-ANA at 1 3 7 9 12	563
